Experimental data from different studies.
Every numbered part comes from another study and shows a few of its results, in no order. Values joined by “and” are separate records of one study, mostly repeats; a detail may differ.
UniProt O94804, sequence (whole entry, looked up): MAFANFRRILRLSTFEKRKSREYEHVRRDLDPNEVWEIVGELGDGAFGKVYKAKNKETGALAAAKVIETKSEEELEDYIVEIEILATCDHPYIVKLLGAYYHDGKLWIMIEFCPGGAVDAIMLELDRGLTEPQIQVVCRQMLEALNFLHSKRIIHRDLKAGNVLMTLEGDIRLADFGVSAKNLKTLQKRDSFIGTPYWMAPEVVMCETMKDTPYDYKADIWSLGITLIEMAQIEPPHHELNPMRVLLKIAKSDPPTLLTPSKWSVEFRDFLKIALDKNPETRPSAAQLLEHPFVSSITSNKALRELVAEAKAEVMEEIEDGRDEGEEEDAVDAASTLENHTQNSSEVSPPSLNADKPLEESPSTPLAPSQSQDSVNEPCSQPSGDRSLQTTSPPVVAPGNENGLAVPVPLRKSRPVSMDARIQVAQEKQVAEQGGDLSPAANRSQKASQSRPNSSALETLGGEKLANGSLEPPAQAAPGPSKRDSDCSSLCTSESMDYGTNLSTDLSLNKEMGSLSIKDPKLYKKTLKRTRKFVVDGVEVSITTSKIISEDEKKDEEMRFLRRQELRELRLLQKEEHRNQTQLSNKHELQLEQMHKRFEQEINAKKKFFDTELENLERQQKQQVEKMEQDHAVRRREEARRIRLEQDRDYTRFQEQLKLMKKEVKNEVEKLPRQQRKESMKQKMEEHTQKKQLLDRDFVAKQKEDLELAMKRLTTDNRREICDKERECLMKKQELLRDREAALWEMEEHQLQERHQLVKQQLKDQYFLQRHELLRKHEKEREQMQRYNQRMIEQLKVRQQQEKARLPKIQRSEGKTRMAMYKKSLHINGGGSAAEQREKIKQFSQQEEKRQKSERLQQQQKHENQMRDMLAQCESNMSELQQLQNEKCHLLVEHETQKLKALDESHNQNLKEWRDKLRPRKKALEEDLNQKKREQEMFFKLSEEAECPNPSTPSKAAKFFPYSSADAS
UniProt O95382, sequence (whole entry, looked up): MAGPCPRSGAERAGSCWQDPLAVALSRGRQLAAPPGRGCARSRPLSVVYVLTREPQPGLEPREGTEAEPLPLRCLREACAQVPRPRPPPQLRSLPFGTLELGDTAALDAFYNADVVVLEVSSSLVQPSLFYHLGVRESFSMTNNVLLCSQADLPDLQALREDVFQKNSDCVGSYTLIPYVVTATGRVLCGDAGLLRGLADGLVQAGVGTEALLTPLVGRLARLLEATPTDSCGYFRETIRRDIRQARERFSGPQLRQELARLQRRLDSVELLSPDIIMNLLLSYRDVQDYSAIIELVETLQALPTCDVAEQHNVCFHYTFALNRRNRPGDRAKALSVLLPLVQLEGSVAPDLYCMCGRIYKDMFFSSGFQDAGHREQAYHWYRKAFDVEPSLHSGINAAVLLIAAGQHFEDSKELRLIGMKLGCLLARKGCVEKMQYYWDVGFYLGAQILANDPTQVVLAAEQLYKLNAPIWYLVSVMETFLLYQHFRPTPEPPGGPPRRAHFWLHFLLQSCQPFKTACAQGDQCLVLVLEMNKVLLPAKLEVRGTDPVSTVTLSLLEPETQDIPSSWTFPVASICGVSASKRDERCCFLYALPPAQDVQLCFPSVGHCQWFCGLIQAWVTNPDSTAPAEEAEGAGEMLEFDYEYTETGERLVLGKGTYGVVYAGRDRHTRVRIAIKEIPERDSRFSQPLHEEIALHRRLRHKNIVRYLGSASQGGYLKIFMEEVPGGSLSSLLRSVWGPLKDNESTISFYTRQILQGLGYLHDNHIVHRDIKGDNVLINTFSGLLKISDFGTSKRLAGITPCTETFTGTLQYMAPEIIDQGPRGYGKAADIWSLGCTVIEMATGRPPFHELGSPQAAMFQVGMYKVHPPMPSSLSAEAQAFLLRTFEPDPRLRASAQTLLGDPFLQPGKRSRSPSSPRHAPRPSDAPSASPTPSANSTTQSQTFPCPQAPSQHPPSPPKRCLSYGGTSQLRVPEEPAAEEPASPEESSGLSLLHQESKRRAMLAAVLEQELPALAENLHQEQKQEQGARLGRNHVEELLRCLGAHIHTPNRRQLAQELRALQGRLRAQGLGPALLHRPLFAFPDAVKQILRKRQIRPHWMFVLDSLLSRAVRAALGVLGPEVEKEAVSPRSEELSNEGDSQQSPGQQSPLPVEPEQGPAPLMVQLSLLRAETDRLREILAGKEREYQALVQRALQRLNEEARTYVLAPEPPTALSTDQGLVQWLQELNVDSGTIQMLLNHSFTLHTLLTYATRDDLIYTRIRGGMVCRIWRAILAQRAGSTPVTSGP
UniProt Q9UK32, sequence (whole entry, looked up): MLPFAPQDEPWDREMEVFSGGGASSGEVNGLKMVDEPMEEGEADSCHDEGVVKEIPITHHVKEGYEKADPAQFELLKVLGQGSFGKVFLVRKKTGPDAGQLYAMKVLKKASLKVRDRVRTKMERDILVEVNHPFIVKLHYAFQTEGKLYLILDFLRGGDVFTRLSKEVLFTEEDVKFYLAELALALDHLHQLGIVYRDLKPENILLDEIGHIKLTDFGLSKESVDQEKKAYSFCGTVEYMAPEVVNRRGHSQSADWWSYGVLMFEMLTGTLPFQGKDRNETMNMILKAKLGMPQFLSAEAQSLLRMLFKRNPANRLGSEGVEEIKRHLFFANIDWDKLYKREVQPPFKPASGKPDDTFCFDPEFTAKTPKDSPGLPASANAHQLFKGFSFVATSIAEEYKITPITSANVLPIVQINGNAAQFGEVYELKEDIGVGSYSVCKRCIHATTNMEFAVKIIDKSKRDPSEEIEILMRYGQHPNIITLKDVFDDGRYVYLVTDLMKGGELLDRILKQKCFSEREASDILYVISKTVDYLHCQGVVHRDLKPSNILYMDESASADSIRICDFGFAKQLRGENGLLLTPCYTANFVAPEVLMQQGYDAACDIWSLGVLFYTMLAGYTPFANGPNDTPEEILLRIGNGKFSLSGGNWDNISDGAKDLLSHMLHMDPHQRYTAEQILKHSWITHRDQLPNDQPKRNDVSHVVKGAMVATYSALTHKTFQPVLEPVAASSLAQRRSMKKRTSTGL
UniProt P53350, sequence (whole entry, looked up): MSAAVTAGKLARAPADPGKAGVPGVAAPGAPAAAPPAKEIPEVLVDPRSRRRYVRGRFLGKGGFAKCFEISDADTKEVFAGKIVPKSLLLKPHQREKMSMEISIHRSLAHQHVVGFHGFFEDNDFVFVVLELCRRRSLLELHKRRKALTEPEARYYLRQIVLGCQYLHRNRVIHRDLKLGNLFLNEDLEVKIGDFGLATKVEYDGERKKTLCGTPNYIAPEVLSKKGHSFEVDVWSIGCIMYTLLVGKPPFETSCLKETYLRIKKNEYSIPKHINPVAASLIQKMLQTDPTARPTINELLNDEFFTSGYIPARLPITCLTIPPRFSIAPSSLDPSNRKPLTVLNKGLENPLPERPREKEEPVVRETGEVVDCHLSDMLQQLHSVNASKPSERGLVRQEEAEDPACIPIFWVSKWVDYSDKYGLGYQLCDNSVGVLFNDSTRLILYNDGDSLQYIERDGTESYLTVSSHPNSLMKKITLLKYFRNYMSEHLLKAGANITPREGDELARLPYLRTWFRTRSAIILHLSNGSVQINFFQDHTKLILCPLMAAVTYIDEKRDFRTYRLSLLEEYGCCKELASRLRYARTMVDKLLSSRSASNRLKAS
UniProt P30291, sequence (whole entry, looked up): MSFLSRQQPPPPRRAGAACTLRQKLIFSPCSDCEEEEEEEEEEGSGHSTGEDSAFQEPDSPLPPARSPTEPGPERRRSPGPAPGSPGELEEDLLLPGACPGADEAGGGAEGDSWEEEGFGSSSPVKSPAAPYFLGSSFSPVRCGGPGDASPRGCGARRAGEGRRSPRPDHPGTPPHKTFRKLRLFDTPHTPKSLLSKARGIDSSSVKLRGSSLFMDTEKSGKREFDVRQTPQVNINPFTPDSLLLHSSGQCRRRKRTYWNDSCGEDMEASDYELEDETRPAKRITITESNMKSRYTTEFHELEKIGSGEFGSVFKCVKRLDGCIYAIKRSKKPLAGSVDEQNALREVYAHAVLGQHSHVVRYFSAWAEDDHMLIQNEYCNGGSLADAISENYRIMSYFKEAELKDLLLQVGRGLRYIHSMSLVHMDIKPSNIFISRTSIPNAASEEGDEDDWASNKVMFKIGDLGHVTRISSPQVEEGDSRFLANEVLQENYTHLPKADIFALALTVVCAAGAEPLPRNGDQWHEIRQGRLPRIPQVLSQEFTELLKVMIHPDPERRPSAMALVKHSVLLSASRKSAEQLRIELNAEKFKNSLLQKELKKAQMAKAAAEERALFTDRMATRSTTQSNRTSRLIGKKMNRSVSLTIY

Study 1
SMILES: O=C(O)c1cc(-c2ccc(C3CCNCC3)cc2)c2ccc(-c3ccc(C(F)(F)F)cc3)cc2c1
Read-out: cell-free assay
Technique: competition with immobilised ligand
Tested at: 1 µM
Quantity: remaining binding
MYLK4 (Homo sapiens, UniProt Q86YV6): 94%
EGFR (Homo sapiens, UniProt P00533, del746-750): 100%
SBK1 (Homo sapiens, UniProt Q52WX2): 100%
Ribosomal protein S6 kinase alpha-2, N-terminal kinase domain (RPS6KA2, Homo sapiens, UniProt Q15349): 100%
EGFR (Homo sapiens, UniProt P00533, L858R): 100%
DYRK1B (Homo sapiens, UniProt Q9Y463): 88%
ERN1 (Homo sapiens, UniProt O75460): 100%
Ribosomal protein S6 kinase alpha-6, C-terminal kinase domain (RPS6KA6, Homo sapiens, UniProt Q9UK32): 100%
STK10 (Homo sapiens, UniProt O94804): 100%
WEE1 (Homo sapiens, UniProt P30291): 98%
PLK1 (Homo sapiens, UniProt P53350): 88%
SRC (Homo sapiens, UniProt P12931): 100%
CDK17 (Homo sapiens, UniProt Q00537): 100%
MAP3K6 (Homo sapiens, UniProt O95382): 100%
STK32C (Homo sapiens, UniProt Q86UX6): 100%

Study 2
Target: Proto-oncogene tyrosine-protein kinase Src (SRC, Homo sapiens, UniProt P12931)
Read-out: enzyme activity
Mode: inhibitor
Tested at: 0.5 µM
Relative to: control
Quantity: remaining activity
Cn1nc2c3c(cccc31)C(=O)c1ccccc1-2: 90.7%
N#C/C(=C\c1ccc(O)c(O)c1)C(=O)NCc1ccccc1: 94.8%
CCN(CC)C(=O)c1ccc(Nc2nc(OCC3CCCCC3)c3[nH]cnc3n2)cc1: 72.8%
O=C(NC(NC(=S)Nc1ccc(F)c([N+](=O)[O-])c1)C(Cl)(Cl)Cl)C(c1ccccc1)c1ccccc1 (stereo not shown): 96.1%
c1ccc(-c2cnc(Nc3ccc(OCCN4CCCC4)cc3)s2)cc1: 75.3%
CCOc1nc(NC(=O)Cc2cc(OC)ccc2OC)cc(N)c1C#N: 94.7%
COc1cc2ncnc(Nc3ccc(O)c(Br)c3)c2cc1OC: 77.5%
C[C@@H]1CCN(C(=O)CC#N)C[C@@H]1N(C)c1ncnc2[nH]ccc12: 99.8%
CCN(CC)CCNC(=O)c1c(C)[nH]c(/C=C2\C(=O)Nc3ccc(Cl)cc32)c1C: 26%
N#Cc1c(NC(=O)c2cccc3ccccc23)sc2c1CCCC2: 93.5%
Cc1cn(-c2cc(NC(=O)c3ccc(C)c(Nc4nccc(-c5cccnc5)n4)c3)cc(C(F)(F)F)c2)cn1: 95.2%
O=C(Nc1cccc(Nc2nccc(Nc3cccc(C(F)(F)F)c3)n2)c1)C1CC1: 64.5%
Ic1cccc(CSc2nnc(-c3ccncc3)o2)c1: 101%
Cc1nc2cc3nc(-c4cccs4)cnc3cc2n1C: 89.9%
CN(C)C[C@H]1CCn2c(c(C3=C(c4cn(C)c5ccccc45)C(=O)NC3=O)c3ccccc32)C1: 101%
O=C1C(Cl)=C(N2C(=O)CCC2=O)C(=O)c2ccccc21: 95.1%
COc1cc2c(cc1OC)-c1[nH]nc(Nc3cccc(F)c3)c1C2: 63.4%
c1ccc(-c2[nH]ncc2-c2ccnc3ccccc23)nc1: 94.7%
Cc1cc2ncc(-c3ccccc3)nc2cc1C: 104%
Nc1cccc(-c2cc3c(Oc4cccc(O)c4)ncnc3[nH]2)c1: 2.07%

Study 3
SMILES: COc1ccc(-c2c(Nc3ccccn3)[nH]c3c(C4=CCCCC4)c(-c4ccccc4)nn3c2=O)cc1
Technique: LC-MS/MS
Species: human
Medium: plasma
Route: oral
Quantity: concentration
item: S-adenosylmethionine; 100 mg once daily: 9.98 ng/mL and 18.7 ng/mL and 12.4 ng/mL and 13.7 ng/mL and 29.6 ng/mL
50 mg once daily, 1 h: 1170 ng/mL
200 mg twice daily, 6 h: 9690 ng/mL
item: methionine; 50 mg once daily: 35500 ng/mL and 95400 ng/mL and 89200 ng/mL
item: methionine; 150 mg once daily: 196000 ng/mL and 85300 ng/mL and 105000 ng/mL and 224000 ng/mL
item: methionine; 400 mg once daily: 45500 ng/mL and 60800 ng/mL and 127000 ng/mL and 122000 ng/mL and 72500 ng/mL and 106000 ng/mL

Study 4
Cell line: HaCaT
Tested at: 100 µM
Time: 36 h
Quantity: viability
Cn1c(=O)c2[nH]c(Br)nc2n(C)c1=O: 80.5%
N#CC(c1ccc(Cl)cc1)c1c(Cl)cc(-n2ncc(=O)[nH]c2=O)cc1Cl (stereo not shown): 41.9%
CCCCc1ncc(/C=C(\Cc2cccs2)C(=O)O)n1Cc1ccc(C(=O)O)cc1: 44.9%
Cc1[nH]c2ccccc2c1CCNCc1ccc(/C=C/C(=O)NO)cc1: 6.37%
CC1Cc2ccccc2N1NC(=O)c1ccc(Cl)c(S(N)(=O)=O)c1 (stereo not shown): 82.4%

Repeated from above (study 3):
item: methionine; 400 mg once daily: 45500 ng/mL and 60800 ng/mL and 127000 ng/mL and 122000 ng/mL and 72500 ng/mL and 106000 ng/mL
50 mg once daily, 1 h: 1170 ng/mL
item: methionine; 50 mg once daily: 35500 ng/mL and 95400 ng/mL and 89200 ng/mL
item: methionine; 150 mg once daily: 196000 ng/mL and 85300 ng/mL and 105000 ng/mL and 224000 ng/mL
200 mg twice daily, 6 h: 9690 ng/mL
